Experimental data from different studies.
Numbered parts are unrelated; each lists some results of a single study. Changes are numbered by the printed parent chain.

Set 1
Target: UBE2D1 UBC core domain (UniProt P51668)
Technique: yeast two-hybrid
Matrix: yeast
Setting: mostly zero background
Reference: not given
Direction: higher = stronger interaction
B1: TRIM26 RING domain (UniProt Q12899); chain PLRSLEEEVTCSICLDYLRDPVTIDCGHVFCRSCTTDVRPISGSRPVCPLCKKPFKKENIRP
B2: DEF8 RING domain (UniProt Q6ZN54); chain AGRLGCSLTEIHTLFAKHIKLDCERCQAKGFVCELCREGDVLFPFDSHTSVCADCSAVFHRDCYYDNSTTCPKCARLSLRK
B3: MEX3B RING domain (UniProt Q6ZN04); chain SGLRRKGSRDCSVCFESEVIAALVPCGHNLFCMECANRICEKSEPECPVCHTAVTQAIRIF
B4: RNF122 RING domain (UniProt Q9H9V4); chain AKKLQLYGQTCAVCLEDFKGKDELGVLPCQHAFHRKCLVKWLEVRCVCPMCNKPIASPSEAT
B5: TRIM37 RING domain (UniProt O94972); chain SVESIAEVFRCFICMEKLRDARLCPHCSKLCCFSCIRRWLTEQRAQCPHCRAPLQLRELVN
Residues (chain): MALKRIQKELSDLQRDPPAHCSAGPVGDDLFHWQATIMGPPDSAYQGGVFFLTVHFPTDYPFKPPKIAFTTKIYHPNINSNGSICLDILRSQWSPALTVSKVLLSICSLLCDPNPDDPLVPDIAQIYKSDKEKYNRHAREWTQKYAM
`B1 (TRIM26 RING domain)` — result for “lacZ reporter activity”: 0.
`RYRQMEERITCPICIDSHIRLVFQCGHGACAPCGSALSACPICRQPIRDRIQIF (MIB2 RING domain (UniProt Q96AX9))`: “lacZ reporter activity” 0.
For `B2 (DEF8 RING domain)`, “lacZ reporter activity” read 0.
Under “lacZ reporter activity”, `B3 (MEX3B RING domain)` is recorded as 0.
For `B4 (RNF122 RING domain)`, “lacZ reporter activity” read 2230.
`B5 (TRIM37 RING domain)`: “lacZ reporter activity” 0.

Set 2
Target: Prothrombin, mature alpha-thrombin (F2, Homo sapiens, UniProt P00734)
Technique: aptamer microarray, sandwich
Form: DNA with 2'F-ANA
Matrix: in vitro
Concentration: 200 nM
Setting: whole 15-mer aptamer, many near background
Added: Cy3 exosite-II aptamer, 400 nM
Direction: higher = stronger binding
Strand: GGTTGGTGTGGTTGG
`2'F-ANA at 1 2 3 4 7 8 9 11 12 14 15` — result for “mean fluorescence intensity”: 76.1 a.u.
`2'F-ANA at 1 5 7 8 10 11 15`: “mean fluorescence intensity” 44.7 a.u.
`2'F-ANA at 1 2 3 5 7 10 11 12 15`: “mean fluorescence intensity” 47.9 a.u.
`2'F-ANA at 1 2 3 7 13 14 15`: “mean fluorescence intensity” 72.5 a.u.
Under “mean fluorescence intensity”, `2'F-ANA at 1 4 5 6 8 9 10 11 12 13` is recorded as 72.3 a.u.
For `2'F-ANA at 3 4 5 7 9 10 11 13 14 15`, “mean fluorescence intensity” read 69.6 a.u.
`2'F-ANA at 1 2 4 5 7 14 15`: “mean fluorescence intensity” 43.5 a.u.
For `2'F-ANA at 4 5 6 8 11 14 15`, “mean fluorescence intensity” read 62.5 a.u.
For `2'F-ANA at 6 7 8 9 10 14`, “mean fluorescence intensity” read 164 a.u.
`2'F-ANA at 1 3 4 8 9 10 11 15`: “mean fluorescence intensity” 60.1 a.u.
`2'F-ANA at 1 3 4 5 8 11 12 13 14` — result for “mean fluorescence intensity”: 44.1 a.u.
`2'F-ANA at 2 3 4 5 6 10 12`: “mean fluorescence intensity” 84.6 a.u.
Under “mean fluorescence intensity”, `2'F-ANA at 3 4 6 7 8 10 11 13` is recorded as 205 a.u.
For `2'F-ANA at 1 3 5 7 8 14 15`, “mean fluorescence intensity” read 45.1 a.u.
`2'F-ANA at 2 6 7 12 13 14`: “mean fluorescence intensity” 165 a.u.
`2'F-ANA at 1 4 8 9 10 12 13`: “mean fluorescence intensity” 51.4 a.u.
`2'F-ANA at 1 4 5 6 8 9 10 11 12 14 15`: “mean fluorescence intensity” 52.6 a.u.
For `2'F-ANA at 1 2 3 10 12 15`, “mean fluorescence intensity” read 97.1 a.u.
For `2'F-ANA at 1 2 5 7 8 9 10 11 13 15`, “mean fluorescence intensity” read 53.5 a.u.
`2'F-ANA at 2 5 6 10 12`: “mean fluorescence intensity” 50.2 a.u.
`2'F-ANA at 1 3 4 6 7 9 10 11 12 13 15` — result for “mean fluorescence intensity”: 65.8 a.u.
For `2'F-ANA at 2 3 4 5 6 7 9 12 13 15`, “mean fluorescence intensity” read 84.8 a.u.
`2'F-ANA at 1 2 5 7 9 10 11 13`: “mean fluorescence intensity” 48.4 a.u.
`2'F-ANA at 1 4 5 7 8 10 12 14 15`: “mean fluorescence intensity” 51.2 a.u.

Set 3
Target: ABI1, truncated, D143A, DHFR fusion (Arabidopsis thaliana)
Technique: DHFR PCA, deep sequencing
Matrix: yeast
Setting: methotrexate growth selection, single substitutions
Added: (+)-ABA 0.39 µM
Reference: wild-type fitted maximum
Direction: higher = stronger binding
Parent: PYL1, truncated, DHFR fusion (Arabidopsis thaliana); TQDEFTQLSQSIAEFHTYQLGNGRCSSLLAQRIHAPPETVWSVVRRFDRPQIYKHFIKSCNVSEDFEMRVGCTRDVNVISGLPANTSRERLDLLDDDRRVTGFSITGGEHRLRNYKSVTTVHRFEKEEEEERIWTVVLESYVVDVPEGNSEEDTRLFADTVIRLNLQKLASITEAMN; partner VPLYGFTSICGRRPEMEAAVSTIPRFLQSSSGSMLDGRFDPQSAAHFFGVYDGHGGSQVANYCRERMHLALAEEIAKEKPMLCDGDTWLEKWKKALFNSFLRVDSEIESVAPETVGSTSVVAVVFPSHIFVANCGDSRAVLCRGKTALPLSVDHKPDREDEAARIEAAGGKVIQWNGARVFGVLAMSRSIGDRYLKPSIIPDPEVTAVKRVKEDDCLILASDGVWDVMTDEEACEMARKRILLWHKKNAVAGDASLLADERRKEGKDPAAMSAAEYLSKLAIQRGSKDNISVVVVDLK
`M68Q` — result for “relative binding score”: 2.33%.
`K54Y` — result for “relative binding score”: -20.9%.
`L94A` — result for “relative binding score”: -12.7%.
`T154H`: “relative binding score” -20.7%.
`R49L` — result for “relative binding score”: 9.03%.
`L166A`: “relative binding score” 10.4%.
`P146L`: “relative binding score” 18.7%.
For `D48T`, “relative binding score” read -13.5%.
For `N77F`, “relative binding score” read 37.5%.
`C72I` — result for “relative binding score”: 12.1%.
For `Q10L`, “relative binding score” read 18.1%.
For `T39W`, “relative binding score” read 3.8%.
`L8F` — result for “relative binding score”: 46.2%.
`I133N`: “relative binding score” 68.1%.
Under “relative binding score”, `P36W` is recorded as -4.82%.
For `D48I`, “relative binding score” read 1.12%.
`Q167T`: “relative binding score” 32.1%.
`I133S` — result for “relative binding score”: 57%.
`G102L` — result for “relative binding score”: -6.4%.

Set 4
Target: CCNE2, cyclin fold, Cln2 fusion (human)
Technique: yeast growth competition, sequencing
Matrix: yeast
Setting: strong parent motif
Reference: not given
Direction: higher = stronger binding
Parent: INSM1 docking peptide (human); PKAIRKLHFEDEV
For `PKAIRKLHFEEEV [D11E]`, “normalised enrichment score” read 1.62.
Under “normalised enrichment score”, `PKAIRNLHFEDEV [K6N]` is recorded as 0.462.
`PKAIRPLHFEDEV [K6P]`: “normalised enrichment score” 0.0187.
`PKAIFKLHFEDEV [R5F]`: “normalised enrichment score” 0.391.
`PKAIRKLHFRDEV [E10R]` — result for “normalised enrichment score”: 1.08.
For `PWAIRKLHFEDEV [K2W]`, “normalised enrichment score” read 0.585.
Under “normalised enrichment score”, `PKAIRKDHFEDEV [L7D]` is recorded as -0.0103.
Under “normalised enrichment score”, `PKAIRKLHFNDEV [E10N]` is recorded as 1.79.
Under “normalised enrichment score”, `PKEIRKLHFEDEV [A3E]` is recorded as 0.526.
`PKAPRKLHFEDEV [I4P]`: “normalised enrichment score” 0.352.
For `PKAIRKLHQEDEV [F9Q]`, “normalised enrichment score” read 0.32.
For `PTAIRKLHFEDEV [K2T]`, “normalised enrichment score” read 1.88.
`PKAIRKLHREDEV [F9R]`: “normalised enrichment score” -0.0357.
`PKAIRKLLFEDEV [H8L]` — result for “normalised enrichment score”: 1.79.
`PMAIRKLHFEDEV [K2M]` — result for “normalised enrichment score”: 1.1.
Under “normalised enrichment score”, `PKAIRCLHFEDEV [K6C]` is recorded as 0.554.
Under “normalised enrichment score”, `PNAIRKLHFEDEV [K2N]` is recorded as 1.74.
`PKAIRKLNFEDEV [H8N]`: “normalised enrichment score” 2.17.
`PKAIRKLHFEDYV [E12Y]`: “normalised enrichment score” 2.19.
